Experimental data pooled from the literature.
Each numbered part is a random draw from the data of one study; scales do not carry over between parts. Changes are numbered by the printed parent chain.

Series 1
Target: PABPC1L2, full length, GST fusion (mouse, UniProt A0ABA7IW68)
Technique: RNAcompete
Molecule type: RNA
Matrix: in vitro
Tested at: 20 nM
Notes: 7-mer, probes averaged, single round
Reference: mean of 7-mers
Direction: higher = stronger binding
Construct (chain): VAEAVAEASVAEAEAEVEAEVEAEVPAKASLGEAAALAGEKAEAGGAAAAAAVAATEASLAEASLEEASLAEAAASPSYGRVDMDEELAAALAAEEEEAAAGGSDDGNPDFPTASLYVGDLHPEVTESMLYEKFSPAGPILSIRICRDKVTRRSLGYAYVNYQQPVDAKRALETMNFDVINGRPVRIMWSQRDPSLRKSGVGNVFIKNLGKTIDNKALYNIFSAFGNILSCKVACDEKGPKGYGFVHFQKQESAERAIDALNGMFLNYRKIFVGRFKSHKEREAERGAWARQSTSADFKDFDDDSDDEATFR
Oligonucleotide | 7-mer Z-score
GGAUCCA | 0.0497
AGUACAA | 0.492
GCAACAG | 0.0315
AGUACCC | -0.351
GAGGAGC | 0.0297
AUGAGGG | 0.211
GACUCAG | -0.141
GUUACUG | -0.266
AGCCGCA | -0.119
UUGAUGG | -0.191
UGACUAA | 0.0841
CGUGCCG | -0.151
ACCUGGG | 0.106
CAUGACA | 0.137
AUGAUGU | -0.186
UUCCCGU | -0.505
UUUACUA | -0.0772
GUCCCGA | -0.249

Series 2
Target: UBE2D1 UBC core domain (UniProt P51668)
Sequence of UniProt P51668 (whole entry, looked up): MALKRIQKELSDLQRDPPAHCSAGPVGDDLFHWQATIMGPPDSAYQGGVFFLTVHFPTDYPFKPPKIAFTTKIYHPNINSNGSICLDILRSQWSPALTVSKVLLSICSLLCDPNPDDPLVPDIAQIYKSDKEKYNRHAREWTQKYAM
Technique: yeast two-hybrid
Matrix: yeast
Notes: mostly zero background
Reference: not given
Direction: higher = stronger interaction
B1: MAP3K1 RING domain (UniProt Q13233); chain NSIKDEEEQMCPICLLGMLDEESLTVCEDGCRNKLHHHCMSIWAEECRRNREPLICPLCRSKWRSHDFYS
B2: RFWD3 RING domain (UniProt Q6PCD5); chain ASMDEEEGDTCTICLEQWTNAGDHRLSALRCGHLFGYRCISTWLKGQVRKCPQCNKKARHSDIVV
B3: ZMIZ2 RING domain (UniProt Q8NF64); chain GTIPGTPGPNGEDGVEQTAIKVSLKCPITFRRIQLPARGHDCRHIQCFDLESYLQLNCERGTWRCPVCNKTALLEGLEVDQYMLGILIYIQNSDYEEITIDPTCSWK
B4: RNF133 RING domain (UniProt Q8WVZ7); chain DEEINPNGDSCVICFERYKPNDIVRILTCKHFFHKNCIDPWILPHGTCPICKCDILKVLGIQ
B5: RNF19A RING domain (UniProt Q9NV58); chain ISKQIGDFIECPLCLLRHSKDRFPDIMTCHHRSCVDCLRQYLRIEISESRVNISCPECTERFNPHDIR
B6: DZIP3 RING domain (UniProt Q86Y13); chain PDEEEEEEEPCVICHENLSPENLSVLPCAHKFHAQCIRPWLMQQGTCPTCRLHVLLPEEFP
Sequence | lacZ reporter activity
B1 (MAP3K1 RING domain) | 14700
B2 (RFWD3 RING domain) | 11100
B3 (ZMIZ2 RING domain) | 0
B4 (RNF133 RING domain) | 5780
NLSELTPYILCSICKGYLIDATTITECLHTFCKSCIVRHFYYSNRCPKCNIVVHQTQPLY (PCGF6 RING domain (UniProt Q9BYE7)) | 0
GSDDEEIPFKCFICRQSFQNPVVTKCRHYFCESCALQHFRTTPRCYVCDQQTNGVFNPA (RNF113A RING domain (UniProt O15541)) | 0
AMYLQENGIDCPKCKFSYALARGGCMHFHCTQCRHQFCSGCYNAFYAKNKC (RNF31 RING domain (UniProt Q96EP0)) | 0
B5 (RNF19A RING domain) | 0
AVPSGLEENLCKICMDSPIDCVLLECGHMVTCTKCGKRMNECPICRQYVIRAVHVF (RFFL RING domain (UniProt Q8WZ73)) | 0
KLRKLKEAMLCMVCCEEEINSTFCPCGHTVCCESCAAQLQSCPVCRSRVEHVQHVY (MYLIP RING domain (UniProt Q8WY64)) | 0
B6 (DZIP3 RING domain) | 0

Series 3
Target: ABI1, truncated, D143A, DHFR fusion (Arabidopsis thaliana)
Technique: DHFR PCA, deep sequencing
Matrix: yeast
Notes: methotrexate growth selection, single substitutions
Together with: (+)-ABA 710 µM
Reference: wild-type fitted maximum
Direction: higher = stronger binding
Starting sequence: PYL1, truncated, DHFR fusion (Arabidopsis thaliana); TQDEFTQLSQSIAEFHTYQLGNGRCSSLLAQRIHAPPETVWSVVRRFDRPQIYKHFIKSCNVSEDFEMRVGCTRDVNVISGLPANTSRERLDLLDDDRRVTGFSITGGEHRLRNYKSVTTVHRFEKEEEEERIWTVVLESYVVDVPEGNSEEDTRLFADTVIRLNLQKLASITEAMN
Change | relative binding score [%]
L29V | 102
D96H | 94.3
S27R | 91
D97M | 111
Q167V | 95.8
R163M | 80.3
D153A | 68.8
T173E | 30.9
Q51D | 94.7
R98F | 95.3

Series 4
Target: RNA binding protein fox-1 homolog 2, RRM domain, GST-SBP tag (RBFOX2, Homo sapiens, UniProt O43251-10, residues 100-194)
Technique: RNA Bind-n-Seq
Molecule type: RNA
Matrix: in vitro
Tested at: 365 nM
Notes: natural RNA segment, single round, ends assumed
Reference: no-protein control
Direction: higher = stronger binding
Construct (chain): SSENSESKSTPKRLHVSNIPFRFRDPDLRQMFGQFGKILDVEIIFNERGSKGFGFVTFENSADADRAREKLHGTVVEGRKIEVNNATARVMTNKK
Oligonucleotide | RBNS enrichment (R)
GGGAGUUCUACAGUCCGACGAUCGUUUGAAUGCAGAUUUUUAUCCACAGAUAGUUGUAGUGUUUAGACAUGACAGGACCUAUCGUUGAGGUUUCUAAGACUUACUAUGGGCUGUAAACCUGUUUUUUAAAACUUGGAAUUCUCGGGUGCCAA | 1.09
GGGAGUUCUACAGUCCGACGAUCGAAACACACCGACUGCCUCAGCAAUCAUGCAAAGACCUUGCCUGGCCCGGUGGCAAGCGCUGAAAAACCGACCGCCUGUAGGCUCCUGGAACUAUACAGAUAGGUAAAGAUGGAAUUCUCGGGUGCCAA | 0.707
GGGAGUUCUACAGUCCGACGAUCAAGAUUUCUGUAUAAGACUGUUGAGCAGUUUUUAAAAUAGUGUAGGAUAAUAUAAAAAGCGGAUAGAUGGCGCUAUGUUUGAUUCCUACAACGAACCGAUCACCAGCUCCUGGAAUUCUCGGGUGCCAA | 0.544
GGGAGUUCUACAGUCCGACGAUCGGGAAGCUGGCCCGGCUGACUGGAGAAUGGGAACCCCAGGACUCUCCACUCAUCUCGAAGGGUUGUGGUCCCCCCAGGAAAGUCUCGAGACAAUGGGGACAUUGUUGGUAUGGAAUUCUCGGGUGCCAA | 0.63
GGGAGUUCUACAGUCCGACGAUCCUAGGCGCUGACAUUAACAGGAGCAACCAGGGCCCAAUUCCUGGCCUUGGAGCUCAAAUCUUUCCUUUGAUUUUUGCUCCUGAUCAUCAAGGCCCCAGUGGCAACCAUGUUGGAAUUCUCGGGUGCCAA | 0.341
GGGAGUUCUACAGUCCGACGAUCAAUGGUAAUACUAAAUUUUUUUGUUAAUUUAUUCUCAAAUGCCACUACUGCUAGGUUGGUCCCCUCCCAACUUGCCCCUAUCCUUUUUUUAUUUUUAAGAAAAAAACUUUUGGAAUUCUCGGGUGCCAA | 0.815
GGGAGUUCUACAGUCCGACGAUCUUCGGGUGAAAUGGCAAGUUGUACAGCCCCCUCGGGCUUGUUUUGUGCUCUCCUGUCACAAAUGCUGCACUGUUGAUUCUUUCAAAACAAAACGAAACAAACCUCUCCAGUGGAAUUCUCGGGUGCCAA | 0.513
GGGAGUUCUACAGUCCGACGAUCAAUGAACUCUUGCCCUGGAAUAAUCUUGACAAUUAAAACUGAUAUGUUUACUUUUUUUGUAUUGAUCACUUUUUUGCACUCCUUCUUUGUUUUCAAUAUUGUAUUCAGCCUGGAAUUCUCGGGUGCCAA | 0.847

Series 5
Target: Histone acetyltransferase KAT6A, both winged helices, GST fusion (KAT6A, Homo sapiens, UniProt Q92794, residues 1-181)
Technique: protein binding microarray
Molecule type: double-stranded DNA, one strand shown
Matrix: in vitro
Tested at: not given
Notes: 8-mer, flanks averaged, mean of 2 arrays, mostly near background
Reference: not given
Direction: higher = stronger binding
Target sequence (chain): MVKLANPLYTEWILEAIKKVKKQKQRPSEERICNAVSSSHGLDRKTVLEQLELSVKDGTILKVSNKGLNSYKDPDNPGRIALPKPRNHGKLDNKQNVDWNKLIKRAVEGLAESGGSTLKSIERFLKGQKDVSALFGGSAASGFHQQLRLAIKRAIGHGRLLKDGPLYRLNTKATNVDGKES
Oligonucleotide | E-score
AGGCGTAC | 0.0488
AAGTGTTC | -0.0415
AGAATCCT | -0.202
GGTCCCAA | -0.0539
AAGCCAGA | -0.0316
GGGGGGTA | -0.0665
AACGCCGA | 0.294
CACGCAGG | -0.0073
ACCGTAAT | 0.0541
CCTACGTA | 0.0192
CGCGCCTC | 0.315
CATTAGCC | -0.0959
AGACCCCA | -0.149
CCAACACC | -0.105
ACTCAAGA | -0.0475
TGCGAGCA | -0.0639
AGGTTCAT | -0.111
GAGTAGCA | -0.237
ATCGGCTC | 0.136
AAGTGCTC | -0.15
CATCGGCC | 0.22
ACTACGAC | -0.122
GATATATA | -0.00187
CCGGATCG | 0.0418
CATCGTGA | 0.0432

A few entries again (series 1):
Oligonucleotide | 7-mer Z-score
GAGGAGC | 0.0297
AUGAGGG | 0.211
GACUCAG | -0.141
GUUACUG | -0.266
AGCCGCA | -0.119
UUGAUGG | -0.191
UGACUAA | 0.0841
CGUGCCG | -0.151
ACCUGGG | 0.106
